# Measurements from different studies.
# Protocols differ between the studies behind these lines. Several values in a cell are separate wells, animals, samples, runs or records. Numbers after ± are the reported error.
Structure (SMILES),system,setting,measurement,value
CN1/C(=C/C=C/c2cc(-c3ccccc3)cc(-c3ccccc3)[o+]2)C(C)(C)c2ccccc21,"CD1 mouse male, plasma","intravenous, 1 mg/kg",clearance,711 mL/min/kg
CC(C)(C)NCC(SS(=O)(=O)O)c1ccccc1 (centres unmarked),"Swiss Webster CFW mouse, female, plasma","intravenous, 15 mg/kg, from 0 h to last",clearance,99.6 mL/min/kg
CCS(=O)(=O)c1ccccc1C(=O)N1CCN(c2nc3ccc(F)cc3s2)C[C@@H]1C,mouse,"oral, 3 mg/kg",clearance,49 ± 8 mL/min/kg
C#CCN(CCCNC(=O)CCCCC[N+]1=C(/C=C/C2=C(Cl)C(=C/C=C3\N(CCCCCC(=O)[O-])c4ccccc4C3(C)C)/CCC2)C(C)(C)c2ccccc21)CCCOc1ccc(Cl)cc1Cl,"C57BL mouse, plasma","intravenous, 5 mg/kg",clearance,0.129 mL/min/kg
COc1ccc(-c2ccn(CC[C@](C)(C(=O)NO)S(C)(=O)=O)c(=O)c2)c(F)c1,"CF-1 mouse, female","subcutaneous, 75 mg/kg",clearance,72 ± 11.2 mL/min/kg
O=C(Cc1ccc(-c2ccc(OCCN3CCOCC3)cc2)cn1)NCc1ccc(F)cc1,ICR mouse,"intravenous, 2 mg/kg",clearance,39.8 ± 5.33 mL/min/kg
CC(C)C[C@H](NC(=O)[C@H](C)NC(=O)[C@H](C)NC(=O)[C@H](CCC(N)=O)NC(=O)[C@H](C)NC(=O)[C@H](CO)NC(=O)[C@H](CC(C)C)NC(=O)[C@H](C)NC(=O)[C@@H](NC(=O)[C@H](C)NC(=O)[C@H](Cc1ccc(O)cc1)NC(=O)[C@H](CO)NC(=O)[C@H](CCCCN)NC(=O)[C@H](C)NC(=O)[C@H](Cc1ccccc1)NC(=O)[C@H](CCCCN)NC(=O)[C@H](C)NC(=O)[C@H](Cc1ccccc1)NC(=O)[C@H](CCCCN)NC(=O)[C@H](CCCCN)NC(=O)[C@H](C)NC(=O)[C@H](Cc1ccccc1)NC(=O)[C@H](CCCCN)NC(=O)[C@H](C)NC(=O)[C@H](Cc1ccccc1)NC(=O)[C@H](CCCCN)NC(=O)[C@H](CCCCN)NC(=O)[C@H](C)NC(=O)[C@H](Cc1ccccc1)NC(=O)[C@H](CCCCN)NC(=O)[C@H](C)NC(=O)[C@H](Cc1ccccc1)NC(=O)[C@@H](N)CCCCN)C(C)C)C(=O)N[C@@H](C)C(=O)N[C@@H](CCCNC(=N)N)C(=O)N[C@@H](CCCNC(=N)N)C(=O)O,"C57BL/6 mouse, male","intravenous, 0.8 mg/kg",clearance,5.22 ± 0.683 mL/min/kg
CCc1nc(N)nc(N)c1C#C[C@H](C)c1cc(-c2cc(C)nc(C)c2)ccc1Cl,"mouse, plasma","intraperitoneal, 5 mg/kg",clearance,5.96 mL/min/kg and 6 mL/min/kg
N=C(N)NCCC[C@@H]1NC(=O)[C@H](Cc2c[nH]c3ccccc23)NC(=O)[C@@H](CC2CCCCC2)NC(=O)[C@@H]2CCCN2C(=O)[C@@H](NC(=O)CCc2ccccc2)CCCNC1=O,"C57BL/6J mouse, plasma","intravenous, 1 mg/kg",clearance,147 µL/min
CCCCCCC[C@@H](O)CC(=O)N[C@H](CCN)C(=O)N[C@H]1CCNC(=O)[C@H](CC(C)C)NC(=O)[C@H](CCN)NC(=O)[C@H](CCN)NC(=O)[C@H](CC(C)C)NC(=O)[C@@H](Cc2ccccc2)NC(=O)[C@H](CCN)NC1=O,mouse,"intravenous, 10 mg/kg",clearance,4.1 mL/min/kg
CN(O)C(=O)CCC(=O)NCCCN(CCCCN(CCCNC(=O)CCC(=O)N(C)O)C(=O)CCC(=O)N(C)O)C(=O)CCC(=O)N(C)O.[89Zr],"BALB/c mouse, healthy",most tissues,clearance time,≤ 24 h

# Repeated from above:
Structure (SMILES),system,setting,measurement,value
N=C(N)NCCC[C@@H]1NC(=O)[C@H](Cc2c[nH]c3ccccc23)NC(=O)[C@@H](CC2CCCCC2)NC(=O)[C@@H]2CCCN2C(=O)[C@@H](NC(=O)CCc2ccccc2)CCCNC1=O,"C57BL/6J mouse, plasma","intravenous, 1 mg/kg",clearance,147 µL/min
CCCCCCC[C@@H](O)CC(=O)N[C@H](CCN)C(=O)N[C@H]1CCNC(=O)[C@H](CC(C)C)NC(=O)[C@H](CCN)NC(=O)[C@H](CCN)NC(=O)[C@H](CC(C)C)NC(=O)[C@@H](Cc2ccccc2)NC(=O)[C@H](CCN)NC1=O,mouse,"intravenous, 10 mg/kg",clearance,4.1 mL/min/kg
